Published values collected from several papers.
A part holds a random share of what one study measured. Substitutions count along the parent as printed.

Block 1
Target: RNA binding protein fox-1 homolog 2, RRM domain, GST-SBP tag (RBFOX2, Homo sapiens, UniProt O43251-10, residues 100-194)
Method: RNA Bind-n-Seq
Form: RNA
Medium: in vitro
Tested at: 365 nM
Setting: natural RNA segment, single round, ends assumed
Reference: no-protein control
Direction: higher = stronger binding
All sequences stand within: GGGAGUUCUACAGUCCGACGAUC … UGGAAUUCUCGGGUGCCAA
Residues (chain): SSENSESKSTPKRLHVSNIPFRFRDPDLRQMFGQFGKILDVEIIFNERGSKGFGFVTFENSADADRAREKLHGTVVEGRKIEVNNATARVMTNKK
`GAUGGAGACAGCCUGCUUAAAGCAAAUCCGAAUUUAAAUAGGACAUUUACAUCGGAAAAGUCUCUCCCUACCUUAAUCCCCCAUUCUCUUGCUUUCAAAAUACAAGCACA`: “RBNS enrichment (R)” 0.418.
`UAUAAGGCGCCAUCAUUCCUCAAGUCAAGCCUCCAUCCCAAAGCACCUGGAGCUGUGGCAAUGAUGCCAGCAACCUGUGUCACCCAAAAUAGUCAAAAUCCAGCCCUCCA` — result for “RBNS enrichment (R)”: 0.848.
`AGAUCCUCUCAAGUGUCUAUUAGAUAGGCAAUAAGAACUGCAGUGUAGCUGGGAAGCAUCUUUUAGCCGACUAUACAUCACUUUGUUUUGAAACAAGGAAGCUGCGCUCU`: “RBNS enrichment (R)” 0.366.
Under “RBNS enrichment (R)”, `GGGAGCUUGUUUUCAACAUUGCUUAUAUUUGAAUAGUAGAAAACCCGACAUUGAUGUUUCUUCCUGUUGCAAGGUGGGGCUUUAAACUUUCAAGGUACAAAAGUAUGUCU` is recorded as 0.666.
`CAGAAAUUUAAAAAAUGAUAUUGGGACCUGGAAGGUUUAAUAUGGUUCACAGUGCCUGAAUUACACCUGCUCCGAAAACUAGCUUUGUAUUUCUUAUGACUUUGCAUAAG` — result for “RBNS enrichment (R)”: 0.431.
Under “RBNS enrichment (R)”, `AGUCCUCUGGUUAUAGUAUAUAAGAGCCUGAGGAGGUCUGGCAAGAUAGAUGGUGUAUUAUUUAUGGAUCAGGCUGCUGCAUACAAACCUUGCAUACUAUUAUGCAGCUU` is recorded as 0.762.
Under “RBNS enrichment (R)”, `UGGAGAGGAGGCUAAUUGUUGGUUCAGACUCCUCCGCUUGGGUAAAAGACUCCCCUUAUCACUCUCCUCACAGUUGCUCUGCAUCUUUAAAGAGUAUUAGCUUCUGCUUC` is recorded as 0.281.
`AGUCUUAAAGGCUGACUGGGAGGCCAUGAACUGUUCACAAGGAGCACGGCUCUGCAGGCGUUGAAUAUUUAAAAGCAUCUAUCUAAGAAAGGCUGUGUAGUAGAACCAGA` — result for “RBNS enrichment (R)”: 0.532.
`UUGAGCUCUGGGGAGAAAGGAUAUGAGGAGUCUACACUGACCUUCCACUUCUUUUUUCACCCAGUUGCCUUUAAACCAGACUCUAAACAGCCUAUCUCCAGGUAGAAAGG` — result for “RBNS enrichment (R)”: 0.248.
`ACAGAGCCAUGCCCCGGCACCUCUGCCCUGUGUCUUUCAUACCUCUACAUGUCUGCUUGAGAUAUUUCCUCAGCCUGAAAGUUUCCCCAACCAUCUGCCAGAGAACUCCU`: “RBNS enrichment (R)” 1.56.
Under “RBNS enrichment (R)”, `GUUUUAAUGUAUUUUAUUGAUUAUCUUCCCGGUUAGUCGAUUAUUUUUCCUCCUCCAAUUGUUUUACCAGACCAGAGAGAGAAAUAAAAACCUCUCCUCACACUUGGUAU` is recorded as 0.278.
`GAAGGGAAAUGUUGAGCCAAAGUUAUGCCUGCGAAGACCCUAAGGUCUCAAAAAGAAGUCUUAAGACGGCAUUGCUUAAGGUGCUUCAUUCCCUAAUCCCCUUUUGAUUU`: “RBNS enrichment (R)” 0.318.

Block 2
Target: ABI1, truncated, D143A, DHFR fusion (Arabidopsis thaliana)
Method: DHFR PCA, deep sequencing
Medium: yeast
Setting: methotrexate growth selection, single substitutions
With: (+)-ABA 0.39 µM
Reference: wild-type fitted maximum
Direction: higher = stronger binding
Starting sequence: PYL1, truncated, DHFR fusion (Arabidopsis thaliana); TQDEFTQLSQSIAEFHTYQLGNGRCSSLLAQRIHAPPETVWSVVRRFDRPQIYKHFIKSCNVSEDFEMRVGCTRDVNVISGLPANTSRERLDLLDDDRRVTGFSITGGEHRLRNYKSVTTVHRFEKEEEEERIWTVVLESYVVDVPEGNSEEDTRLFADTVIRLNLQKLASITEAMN
For `S80I`, “relative binding score” read 16.9%.
Under “relative binding score”, `G102P` is recorded as -8.48%.
`I162V`: “relative binding score” 59.5%.
Under “relative binding score”, `D3M` is recorded as 40.2%.
`N165M` — result for “relative binding score”: 13.3%.
For `F103S`, “relative binding score” read -1.87%.
Under “relative binding score”, `F15H` is recorded as 19.1%.
`E67T`: “relative binding score” 33.4%.
Under “relative binding score”, `E131D` is recorded as 62.4%.
`V78S` — result for “relative binding score”: 5.4%.
For `S59Q`, “relative binding score” read 20.6%.
Under “relative binding score”, `T173W` is recorded as -21.2%.

Block 3
Target: Interferon regulatory factor 3, full length, phosphomimetic (IRF3, Homo sapiens, UniProt Q14653, residues 1-427, S386D/S396D/S398D/S402D/T404D/S405D)
Method: protein-binding microarray
Form: double-stranded DNA, one strand shown
Medium: in vitro
Tested at: 2540 nM top
Setting: 60-bp whole probe
With: salmon DNA 0.4 mg/ml
Reference: random background probes
Direction: higher = stronger binding
All sequences stand within: GCCTAGCAC … GTCTTGATTCGCTTGACGCTGCTG
Construct (chain): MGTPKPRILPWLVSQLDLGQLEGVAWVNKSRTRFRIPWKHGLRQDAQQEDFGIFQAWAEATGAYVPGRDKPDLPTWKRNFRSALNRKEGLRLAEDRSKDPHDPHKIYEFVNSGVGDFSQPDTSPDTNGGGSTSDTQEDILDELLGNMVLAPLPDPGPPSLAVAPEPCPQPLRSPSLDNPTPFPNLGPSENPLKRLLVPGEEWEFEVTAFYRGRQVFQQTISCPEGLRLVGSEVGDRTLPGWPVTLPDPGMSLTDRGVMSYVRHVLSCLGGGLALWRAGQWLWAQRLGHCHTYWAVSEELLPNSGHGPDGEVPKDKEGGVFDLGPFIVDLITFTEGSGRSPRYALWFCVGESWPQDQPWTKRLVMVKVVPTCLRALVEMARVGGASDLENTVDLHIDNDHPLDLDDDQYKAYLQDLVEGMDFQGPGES
`TTAGATTTCAGGACTGGATTAGTGCTA`: “fitted relative affinity” 0.619 z-score.
`TCTGTTTTTGCTTTCCTTTAGTGCTAG` — result for “fitted relative affinity”: 3.83 z-score.
`TTAGTTATCGACACTGGGTTAGTGCTA`: “fitted relative affinity” -0.0293 z-score.
For `TTAGATCTCAGATTGGATTAGTGCTAG`, “fitted relative affinity” read 0.195 z-score.
`GACGGAATGCTTTTCCTGACGTGCTAG` — result for “fitted relative affinity”: 0.281 z-score.
`GACGGACTGCTTCTCCTCACGTGCTAG` — result for “fitted relative affinity”: -0.434 z-score.
`TCAGCTTTCCTTTGCTTACTGTGCTAG`: “fitted relative affinity” 2.86 z-score.
For `GACGAACTGGGGACTGGAGTCGTGCTA`, “fitted relative affinity” read -0.434 z-score.
`TTAGGACTGCTTCTCCTTTCGTGCTAG` — result for “fitted relative affinity”: 0.323 z-score.
`TTAGGTGCCGGTTTCGGTTAGTGCTAG`: “fitted relative affinity” 5.31 z-score.
`AACTTTGGTATCTGGCATCTGTGCTAG`: “fitted relative affinity” -0.143 z-score.
`TTAGGTCACCTTTTCCTTTAGTGCTAG`: “fitted relative affinity” 3.08 z-score.
Under “fitted relative affinity”, `TTAGGACTGGAACTGGGTTAGTGCTAG` is recorded as -0.598 z-score.
`TTAGATTTCAGTTTCGTTTAGTGCTAG`: “fitted relative affinity” 6.11 z-score.
For `GACGGTATCGGACGGGGGACGTGCTAG`, “fitted relative affinity” read 0.67 z-score.
`GACGGTATCCTTCCCCTGACGTGCTAG`: “fitted relative affinity” 3.05 z-score.
`TCATTTTTTGGTTTCTGACTGTGCTAG` — result for “fitted relative affinity”: 2.8 z-score.
Under “fitted relative affinity”, `TCAACTAGCGGGTCTTGCACTGTGCTA` is recorded as -0.429 z-score.
Under “fitted relative affinity”, `GACGGGTTCGACACTGGGGACGTGCTA` is recorded as -0.364 z-score.
`TTAGATTTGGGGTATCGATTAGTGCTA` — result for “fitted relative affinity”: -0.161 z-score.
`TCAAGAATGCCTTTAATACTGTGCTAG` — result for “fitted relative affinity”: -0.41 z-score.
Under “fitted relative affinity”, `GACGATTGCAGTTTCGAGACGTGCTAG` is recorded as 2.76 z-score.
`TTAGGTTTCCTTATCCCTTAGTGCTAG` — result for “fitted relative affinity”: 7.65 z-score.
`TTGGGACTGCTTTTCCTTTAGTGCTAG` — result for “fitted relative affinity”: 0.512 z-score.

Block 4
Target: CCNA2, cyclin fold, Cln2 fusion (human)
Method: yeast growth competition, sequencing
Medium: yeast
Setting: strong parent motif
Reference: not given
Direction: higher = stronger binding
Starting sequence: PKN2 docking peptide (human); VSAVRKLDFSDTM; partner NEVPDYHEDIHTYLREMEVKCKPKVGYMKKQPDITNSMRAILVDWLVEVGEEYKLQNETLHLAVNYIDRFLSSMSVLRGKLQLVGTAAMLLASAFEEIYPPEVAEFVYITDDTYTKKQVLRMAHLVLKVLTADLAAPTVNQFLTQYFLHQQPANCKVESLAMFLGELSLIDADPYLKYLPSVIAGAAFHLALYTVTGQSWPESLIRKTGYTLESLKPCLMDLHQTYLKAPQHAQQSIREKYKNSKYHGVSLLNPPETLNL
For `VSAVRKLDFYDTM [S10Y]`, “normalised enrichment score” read 5.18.
For `VSAVDKLDFSDTM [R5D]`, “normalised enrichment score” read -0.369.
For `VSAVRKLDISDTM [F9I]`, “normalised enrichment score” read 0.447.
`VTAVRKLDFSDTM [S2T]`: “normalised enrichment score” 5.48.
Under “normalised enrichment score”, `VSAVRKLDFPDTM [S10P]` is recorded as 4.68.
Under “normalised enrichment score”, `VKAVRKLDFSDTM [S2K]` is recorded as 5.79.
Under “normalised enrichment score”, `VIAVRKLDFSDTM [S2I]` is recorded as 4.91.
`VSAVRKLNFSDTM [D8N]`: “normalised enrichment score” 5.48.
Under “normalised enrichment score”, `VSAVRGLDFSDTM [K6G]` is recorded as 2.66.
Under “normalised enrichment score”, `VSAVRCLDFSDTM [K6C]` is recorded as 4.86.
`VSAVRKLDFVDTM [S10V]`: “normalised enrichment score” 4.3.
`VSAVRKLSFSDTM [D8S]`: “normalised enrichment score” 4.66.
`VSAVPKLDFSDTM [R5P]` — result for “normalised enrichment score”: -0.21.
`VSFVRKLDFSDTM [A3F]`: “normalised enrichment score” 4.78.
For `VSAVRKLDFEDTM [S10E]`, “normalised enrichment score” read 5.11.
Under “normalised enrichment score”, `VSAVRKTDFSDTM [L7T]` is recorded as 0.336.
`VSAVMKLDFSDTM [R5M]` — result for “normalised enrichment score”: 3.06.

Block 5
Target: TAR DNA-binding protein 43, full length, His tag (TARDBP, Homo sapiens, UniProt Q13148, residues 1-414)
Method: RNA Bind-n-Seq
Form: RNA
Medium: in vitro
Tested at: 20 nM
Setting: 6-mer, flanks averaged, single round
With: 150 mM LiCl
Reference: input library
Direction: higher = stronger binding
`AGGGUC` — result for “6-mer enrichment (R)”: 0.954.
`UUUUUU`: “6-mer enrichment (R)” 1.95.
`UCCCGC` — result for “6-mer enrichment (R)”: 0.945.
`CGAGCG` — result for “6-mer enrichment (R)”: 0.947.
`CGUCUA` — result for “6-mer enrichment (R)”: 0.865.
Under “6-mer enrichment (R)”, `CUAUUC` is recorded as 0.904.
`ACAUUA`: “6-mer enrichment (R)” 0.895.
For `GAGGUG`, “6-mer enrichment (R)” read 1.36.
`UCGAUA`: “6-mer enrichment (R)” 0.825.
`UCAUUC`: “6-mer enrichment (R)” 0.872.
`AAUAAC`: “6-mer enrichment (R)” 1.12.
Under “6-mer enrichment (R)”, `GCUACG` is recorded as 0.867.
Under “6-mer enrichment (R)”, `CUCCAA` is recorded as 0.904.
Under “6-mer enrichment (R)”, `CCCCGU` is recorded as 1.13.
`AACUAA` — result for “6-mer enrichment (R)”: 0.848.
`AAUCGA` — result for “6-mer enrichment (R)”: 0.787.
`CUCUUG`: “6-mer enrichment (R)” 0.942.
`CACCUA` — result for “6-mer enrichment (R)”: 0.919.
For `CGCAAU`, “6-mer enrichment (R)” read 0.881.

Some of these lines once more (block 3):
`TTAGTTATCGACACTGGGTTAGTGCTA`: “fitted relative affinity” -0.0293 z-score.
For `TTAGATCTCAGATTGGATTAGTGCTAG`, “fitted relative affinity” read 0.195 z-score.
`GACGGAATGCTTTTCCTGACGTGCTAG` — result for “fitted relative affinity”: 0.281 z-score.
`GACGGACTGCTTCTCCTCACGTGCTAG` — result for “fitted relative affinity”: -0.434 z-score.
`TCAGCTTTCCTTTGCTTACTGTGCTAG`: “fitted relative affinity” 2.86 z-score.
For `GACGAACTGGGGACTGGAGTCGTGCTA`, “fitted relative affinity” read -0.434 z-score.
`TTAGGACTGCTTCTCCTTTCGTGCTAG` — result for “fitted relative affinity”: 0.323 z-score.
`TTAGGTGCCGGTTTCGGTTAGTGCTAG`: “fitted relative affinity” 5.31 z-score.
`AACTTTGGTATCTGGCATCTGTGCTAG`: “fitted relative affinity” -0.143 z-score.
`TTAGGTCACCTTTTCCTTTAGTGCTAG`: “fitted relative affinity” 3.08 z-score.
Under “fitted relative affinity”, `TTAGGACTGGAACTGGGTTAGTGCTAG` is recorded as -0.598 z-score.
`TTAGATTTCAGTTTCGTTTAGTGCTAG`: “fitted relative affinity” 6.11 z-score.
For `GACGGTATCGGACGGGGGACGTGCTAG`, “fitted relative affinity” read 0.67 z-score.
